Measured values pooled from the literature.
Numbered parts are unrelated; each lists some results of a single study. Numbers after ± are the reported error.

Sample 1 — organism: Human immunodeficiency virus 1; observed: viral infection; method: Env pseudovirus; cells: TZM-bl; measurement: IC80
Compound: CCCOC(=O)N1c2cc(CNC)ccc2[C@H](NC(=O)C(=O)Nc2ccc(Cl)c(F)c2)[C@H]1CNC(=N)N
REJO4541.67 clade B: 92 nM
6535.3 clade B: 75 nM
CAP210.2.00.E8 clade C: 2500 nM
X1632_S2_B10 clade G: 2890 nM
HIV-0013095-2.11 clade C: 366 nM

Sample 2 — target: HIV-1 TAR RNA; tested at: concentration not given; temperature: 25 °C; measurement: binding enthalpy ΔH°
CC(=O)NCCN(CC(=O)NCCN(CC(=O)NCCN(CC(=O)NCCC(N)=O)C(=O)[C@@H](N)CCCCN)C(=O)[C@@H](N)Cc1ccccc1)C(=O)[C@@H](N)Cc1ccccc1: -13 ± 0.335 kcal/mol
CC(=O)NCCN(CC(=O)NCCN(CC(=O)NCCN(CC(=O)NCCC(N)=O)C(=O)[C@@H](N)Cc1ccccc1)C(=O)[C@@H](N)CCCNC(=N)N)C(=O)[C@@H](N)Cc1ccccc1: -13.2 ± 0.406 kcal/mol
CC(=O)NCCN(CC(=O)NCCN(CC(=O)NCCN(CC(=O)NCCC(N)=O)C(=O)C[C@@H](N)Cc1ccccc1)C(=O)C[C@@H](N)CCCNC(=N)N)C(=O)C[C@@H](N)Cc1ccccc1: -7.31 ± 0.263 kcal/mol
CC(=O)NCCN(CC(=O)NCCN(CC(=O)NCCN(CC(=O)NCCC(N)=O)C(=O)C[C@@H](N)CCCNC(=N)N)C(=O)C[C@@H](N)Cc1ccccc1)C(=O)C[C@@H](N)Cc1ccccc1: -7 ± 0.263 kcal/mol

Mixed results
F[P-](F)(F)(F)(F)F.OC(Cn1cncn1)(Cn1cc(-[c-]2cccc2)nn1)c1ccc(F)cc1F.[Co+3].c1cc[cH-]c1 (racemic)
inhibition (Brugia pahangi; motility, Worminator; adult female; 50 µM, 6 d): 55%

C[C@H](Nc1ncnc(N)c1C#N)c1c(-c2ccccc2)[nH]c2c(Cl)cccc2c1=O
Tmax (CB17 SCID mice, xenograft, plasma; oral, 100 mg/kg once daily, day 1): 2 h

Excerpt of the above (sample 1):
HIV-0013095-2.11 clade C: 366 nM
